Published values pooled from the literature.
± gives the spread as reported.
rep main protease: Replicase polyprotein 1ab, main protease (rep, Severe acute respiratory syndrome coronavirus 2, UniProt P0DTD1)
rep nsp14 N7-methyltransferase: Replicase polyprotein 1ab, nsp14 N7-methyltransferase (rep, Severe acute respiratory syndrome coronavirus 2, UniProt P0DTD1)

Compound | target or system | test | test system | conditions | quantity | result
NC(=O)[C@@H](CCC(F)(F)F)N(Cc1ccc(-c2ncon2)cc1F)S(=O)(=O)c1ccc(Cl)cc1 | rep main protease | reporter gene (mKate2), inhibitor |  | 20 µM | inhibition | 0.115%
Cc1nc(C(=O)N2CC[C@@H]([C@@H]3CCCN3C(=O)c3cc(O)c4ccoc4c3)C2)cc(=O)[nH]1 | rep main protease | Mpro enzyme activity, inhibitor |  | 5 µM, high-throughput screen, mean of runs | inhibition | 12%
CC[C@H](C)[C@H](NC(=O)[C@H](CC(C)C)NC(=O)[C@H](Cc1c[nH]c2ccccc12)NC(=O)[C@H](CCC(N)=O)NC(=O)[C@@H](NC(=O)[C@H](Cc1ccccc1)NC(=O)[C@H](C)NC(=O)[C@H](CCCCNC(=O)COCCOCCNC(=O)COCCOCCNC(=O)CC[C@H](NC(=O)CCCCCCCCCCCCCCCCCCC(=O)O)C(=O)O)NC(=O)[C@H](CCC(N)=O)NC(=O)[C@H](C)NC(=O)[C@@H](NC(=O)[C@H](CCCCN)NC(=O)[C@H](CC(=O)O)NC(=O)[C@H](CC(C)C)NC(=O)C(C)(C)NC(=O)[C@@H](NC(=O)[C@H](CO)NC(=O)[C@H](Cc1ccc(O)cc1)NC(=O)[C@H](CC(=O)O)NC(=O)[C@H](CO)NC(=O)[C@@H](NC(=O)[C@H](Cc1ccccc1)NC(=O)[C@@H](NC(=O)CNC(=O)[C@H](CCC(=O)O)NC(=O)C(C)(C)NC(=O)[C@@H](N)Cc1ccc(O)cc1)[C@@H](C)O)[C@@H](C)O)[C@@H](C)CC)[C@@H](C)CC)C(C)C)C(=O)N[C@@H](C)C(=O)NCC(=O)NCC(=O)N1CCC[C@H]1C(=O)N[C@@H](CO)C(=O)N[C@@H](CO)C(=O)NCC(=O)N[C@@H](C)C(=O)N1CCC[C@H]1C(=O)N1CCC[C@H]1C(=O)N1CCC[C@H]1C(=O)N[C@@H](CO)C(N)=O |  |  | healthy subjects | 4.5 mg, multiple ascending dose | severe hypoglycaemia | 0%
Cc1nn(-c2ccc(Cl)cc2)c2c1C(c1ccc(Cl)cc1Cl)C(C#N)=C(N)O2 (stereo not drawn) | rep main protease | 3CL protease activity |  | 0.001 µg/mL, 120 min, enzyme 1 ng/mL | inhibition | 4.85%
C=Cc1cc(O)cc2ccc3c(C)c(O)ccc3c12 | rep main protease | reporter gene (mKate2), inhibitor |  | 20 µM | inhibition | -1.15%
CC(=O)N1CCN(C(=S)c2ccc(-c3cccc(Cl)c3)o2)CC1 | rep nsp14 N7-methyltransferase | N7-methyltransferase activity, inhibitor, Py-FLINT |  |  | Hill slope | 1.3 ± 0.12
CNC(=O)[C@@H](NC(=O)[C@H](CC(C)C)[C@H](O)C(=O)NO)C(C)(C)C |  |  | TN population, mouse | intravenous, 120 µg/mouse, 24 h, preincubated with venom, together with: Daboia russelii venom 2.5 x LD50 | survival | 100%
COc1cc2c(cc1O)[C@@H](Cc1ccc(O)c(Oc3ccc(C[C@@H]4c5cc(OC)c(OC)cc5CCN4C)cc3)c1)N(C)CC2 | Spike glycoprotein (Severe acute respiratory syndrome coronavirus 2, UniProt P0DTC2) | binding, biolayer interferometry |  |  | Kd | 139 µM
O=C(N[C@@H]1CC[C@H]2C[C@@H]1CN2C(=O)c1cccc(-n2cncn2)c1)c1cc2c(=O)[nH]ccn2n1 | rep main protease | enzyme activity, inhibitor |  | 5 µM, run 1 | inhibition | 12.2%
CCOc1nc2cccc(C(=O)OC(C)OC(=O)OC3CCCCC3)c2n1Cc1ccc(-c2ccccc2-c2nnn[nH]2)cc1 (stereo not drawn) | rep nsp14 N7-methyltransferase | N7-methyltransferase activity, inhibitor, Py-FLINT |  |  | Hill slope | 2.62 ± 0.28
Cn1cnc(Cn2c(=O)[nH]/c(=N\c3cc4cn(C)nc4cc3Cl)n(Cc3cc(F)c(F)cc3F)c2=O)n1 |  |  | human, normal renal function | oral, 375 mg | dry mouth TEAE, Severe severity | 0%
Cc1ccc2nc(-c3ccc(-c4ccccc4C(=O)O)o3)cc(C(=O)O)c2c1 | rep nsp14 N7-methyltransferase | N7-methyltransferase activity, inhibitor, Py-FLINT |  |  | Hill slope | 1.1 ± 0.06
Cc1nn(CC(=O)N2C[C@H]3C[C@@H]2CC[C@H]3NC(=O)C=C2C3CC4CC(C3)CC2C4)c(=O)n1C | rep main protease | enzyme activity, inhibitor |  | 5 µM, mean of runs | inhibition | 11.6%
Nc1ncnc2c([C@@H]3N[C@H](CO)[C@@H](O)[C@H]3O)c[nH]c12 | Marburg virus | viral replication | HeLa, Musoke | 200 µM | inhibition | 99%
COc1ccc2c(c1O)-c1c(OC)c(OC)cc3c1[C@H](C2)N(C)CC3.Cl | rep main protease | reporter gene (Gaussia luciferase), inhibitor |  | 20 µM | inhibition | 0.876%

For quick reference, copied from above:
Compound | target or system | test | test system | conditions | quantity | result
C=Cc1cc(O)cc2ccc3c(C)c(O)ccc3c12 | rep main protease | reporter gene (mKate2), inhibitor |  | 20 µM | inhibition | -1.15%
